Assay results pooled from the literature.
Parts stem from different laboratories: compare values within a part only.
Sequence of UniProt Q16566 (whole entry, looked up): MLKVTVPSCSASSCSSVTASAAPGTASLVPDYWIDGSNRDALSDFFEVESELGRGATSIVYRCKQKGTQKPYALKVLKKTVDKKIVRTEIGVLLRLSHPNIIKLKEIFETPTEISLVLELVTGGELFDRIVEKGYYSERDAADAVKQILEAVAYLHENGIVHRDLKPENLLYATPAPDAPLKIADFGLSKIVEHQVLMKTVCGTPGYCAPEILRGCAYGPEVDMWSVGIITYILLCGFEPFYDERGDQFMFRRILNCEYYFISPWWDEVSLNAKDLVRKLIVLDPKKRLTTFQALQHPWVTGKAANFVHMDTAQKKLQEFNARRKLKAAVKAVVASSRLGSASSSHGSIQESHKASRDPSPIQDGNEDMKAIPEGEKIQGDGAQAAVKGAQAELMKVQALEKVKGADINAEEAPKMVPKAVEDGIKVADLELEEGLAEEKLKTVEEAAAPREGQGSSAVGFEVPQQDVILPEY
Sequence of UniProt Q96L34 (whole entry, looked up): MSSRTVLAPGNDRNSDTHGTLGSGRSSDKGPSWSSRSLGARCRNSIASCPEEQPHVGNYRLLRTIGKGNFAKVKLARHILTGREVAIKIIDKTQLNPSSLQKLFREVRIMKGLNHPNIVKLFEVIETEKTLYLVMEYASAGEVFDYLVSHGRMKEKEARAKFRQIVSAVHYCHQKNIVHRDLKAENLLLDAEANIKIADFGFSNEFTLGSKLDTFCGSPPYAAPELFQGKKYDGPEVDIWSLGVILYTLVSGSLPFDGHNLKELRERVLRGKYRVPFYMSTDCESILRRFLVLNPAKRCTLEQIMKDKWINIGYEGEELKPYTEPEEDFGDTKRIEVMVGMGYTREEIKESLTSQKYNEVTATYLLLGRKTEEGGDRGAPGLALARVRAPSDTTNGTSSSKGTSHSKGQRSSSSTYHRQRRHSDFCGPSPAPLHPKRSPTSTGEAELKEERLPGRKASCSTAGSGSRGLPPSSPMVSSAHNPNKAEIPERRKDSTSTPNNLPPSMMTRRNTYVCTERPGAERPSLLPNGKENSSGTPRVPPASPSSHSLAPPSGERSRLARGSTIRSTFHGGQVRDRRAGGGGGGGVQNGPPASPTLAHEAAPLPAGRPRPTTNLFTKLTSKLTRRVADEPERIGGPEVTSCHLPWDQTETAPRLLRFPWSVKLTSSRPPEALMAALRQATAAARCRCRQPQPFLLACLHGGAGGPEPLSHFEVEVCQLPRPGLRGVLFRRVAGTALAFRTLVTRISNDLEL
Sequence of UniProt Q96NX5 (whole entry, looked up): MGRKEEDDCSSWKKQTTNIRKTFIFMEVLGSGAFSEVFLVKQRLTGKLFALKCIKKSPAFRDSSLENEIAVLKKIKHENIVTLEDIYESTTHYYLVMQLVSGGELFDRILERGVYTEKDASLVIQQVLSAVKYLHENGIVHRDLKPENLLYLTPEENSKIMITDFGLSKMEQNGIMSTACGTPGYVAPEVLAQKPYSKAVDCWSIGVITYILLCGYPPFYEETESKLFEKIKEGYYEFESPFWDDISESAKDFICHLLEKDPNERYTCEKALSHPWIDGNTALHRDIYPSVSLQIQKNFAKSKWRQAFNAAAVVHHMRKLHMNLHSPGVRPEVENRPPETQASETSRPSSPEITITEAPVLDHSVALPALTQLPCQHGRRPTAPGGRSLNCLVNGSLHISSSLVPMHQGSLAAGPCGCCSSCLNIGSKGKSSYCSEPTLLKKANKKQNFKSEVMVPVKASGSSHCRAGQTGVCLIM
Sequence of UniProt Q9P2K8 (whole entry, unmodified, looked up): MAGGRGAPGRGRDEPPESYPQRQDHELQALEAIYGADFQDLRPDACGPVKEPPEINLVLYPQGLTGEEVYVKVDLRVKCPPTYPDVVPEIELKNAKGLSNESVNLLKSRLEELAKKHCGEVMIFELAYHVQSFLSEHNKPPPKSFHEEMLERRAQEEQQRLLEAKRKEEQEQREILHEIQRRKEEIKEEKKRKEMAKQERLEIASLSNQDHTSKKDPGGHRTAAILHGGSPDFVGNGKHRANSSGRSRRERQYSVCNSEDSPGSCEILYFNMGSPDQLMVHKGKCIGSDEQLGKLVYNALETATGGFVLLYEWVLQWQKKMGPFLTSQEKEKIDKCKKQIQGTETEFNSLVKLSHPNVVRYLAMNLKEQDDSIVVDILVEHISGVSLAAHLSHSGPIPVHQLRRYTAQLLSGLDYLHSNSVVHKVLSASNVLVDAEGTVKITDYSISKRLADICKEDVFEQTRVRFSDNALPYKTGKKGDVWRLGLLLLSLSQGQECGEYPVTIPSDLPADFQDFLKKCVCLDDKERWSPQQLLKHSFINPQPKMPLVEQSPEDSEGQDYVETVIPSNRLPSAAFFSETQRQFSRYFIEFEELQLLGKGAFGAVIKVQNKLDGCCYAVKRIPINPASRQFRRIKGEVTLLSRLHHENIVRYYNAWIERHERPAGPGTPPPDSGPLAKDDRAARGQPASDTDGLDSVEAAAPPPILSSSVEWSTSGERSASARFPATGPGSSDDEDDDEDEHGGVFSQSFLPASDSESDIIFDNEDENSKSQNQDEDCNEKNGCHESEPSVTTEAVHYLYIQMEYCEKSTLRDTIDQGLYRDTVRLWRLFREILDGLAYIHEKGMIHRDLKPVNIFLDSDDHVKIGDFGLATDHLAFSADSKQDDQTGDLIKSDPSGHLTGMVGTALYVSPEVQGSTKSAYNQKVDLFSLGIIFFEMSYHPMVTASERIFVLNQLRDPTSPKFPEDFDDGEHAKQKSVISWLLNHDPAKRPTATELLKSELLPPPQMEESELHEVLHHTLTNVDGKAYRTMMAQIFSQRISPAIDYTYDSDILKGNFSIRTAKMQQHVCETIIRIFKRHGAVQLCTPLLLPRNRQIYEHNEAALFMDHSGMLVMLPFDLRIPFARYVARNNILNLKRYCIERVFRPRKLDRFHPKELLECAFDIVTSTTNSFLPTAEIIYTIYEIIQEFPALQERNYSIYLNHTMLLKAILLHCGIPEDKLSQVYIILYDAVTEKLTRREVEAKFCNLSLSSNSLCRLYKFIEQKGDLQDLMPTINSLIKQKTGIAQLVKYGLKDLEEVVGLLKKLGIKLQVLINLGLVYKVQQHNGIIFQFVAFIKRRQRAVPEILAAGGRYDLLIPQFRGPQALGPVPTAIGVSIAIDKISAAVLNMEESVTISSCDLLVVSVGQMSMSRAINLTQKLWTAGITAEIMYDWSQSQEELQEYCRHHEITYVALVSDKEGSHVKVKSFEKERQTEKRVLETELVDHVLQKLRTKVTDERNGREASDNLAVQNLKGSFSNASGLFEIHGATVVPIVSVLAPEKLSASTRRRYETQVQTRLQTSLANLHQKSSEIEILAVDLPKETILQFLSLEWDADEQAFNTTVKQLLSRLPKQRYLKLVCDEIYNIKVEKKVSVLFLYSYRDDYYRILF
Sequence of UniProt P31751 (whole entry, looked up): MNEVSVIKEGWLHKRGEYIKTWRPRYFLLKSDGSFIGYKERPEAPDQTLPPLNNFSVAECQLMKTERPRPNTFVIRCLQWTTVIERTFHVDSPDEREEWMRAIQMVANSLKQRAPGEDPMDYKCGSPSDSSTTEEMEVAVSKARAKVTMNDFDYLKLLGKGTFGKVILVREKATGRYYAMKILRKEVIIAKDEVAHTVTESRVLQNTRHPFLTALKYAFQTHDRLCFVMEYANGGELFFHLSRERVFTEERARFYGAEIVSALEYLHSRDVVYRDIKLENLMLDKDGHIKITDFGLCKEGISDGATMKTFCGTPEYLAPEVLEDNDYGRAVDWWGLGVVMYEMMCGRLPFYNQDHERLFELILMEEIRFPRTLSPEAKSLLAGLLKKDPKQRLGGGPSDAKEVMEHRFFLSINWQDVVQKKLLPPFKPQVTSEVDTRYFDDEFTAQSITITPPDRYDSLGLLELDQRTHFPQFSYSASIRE
Sequence of UniProt Q92772 (whole entry, looked up): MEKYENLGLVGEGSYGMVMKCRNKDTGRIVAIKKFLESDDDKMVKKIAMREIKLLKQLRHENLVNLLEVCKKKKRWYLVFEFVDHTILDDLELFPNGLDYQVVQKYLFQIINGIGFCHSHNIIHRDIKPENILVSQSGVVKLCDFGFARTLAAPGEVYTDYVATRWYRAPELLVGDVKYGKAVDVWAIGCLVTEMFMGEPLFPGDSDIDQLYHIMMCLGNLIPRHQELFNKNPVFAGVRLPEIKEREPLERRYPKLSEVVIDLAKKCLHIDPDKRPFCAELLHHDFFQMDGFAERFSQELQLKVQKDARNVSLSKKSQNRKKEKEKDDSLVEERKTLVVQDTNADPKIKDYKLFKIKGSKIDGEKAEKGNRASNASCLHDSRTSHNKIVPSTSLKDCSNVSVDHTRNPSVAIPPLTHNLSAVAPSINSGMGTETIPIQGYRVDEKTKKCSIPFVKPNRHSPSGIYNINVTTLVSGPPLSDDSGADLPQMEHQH
Sequence of UniProt Q8NE63 (whole entry, looked up): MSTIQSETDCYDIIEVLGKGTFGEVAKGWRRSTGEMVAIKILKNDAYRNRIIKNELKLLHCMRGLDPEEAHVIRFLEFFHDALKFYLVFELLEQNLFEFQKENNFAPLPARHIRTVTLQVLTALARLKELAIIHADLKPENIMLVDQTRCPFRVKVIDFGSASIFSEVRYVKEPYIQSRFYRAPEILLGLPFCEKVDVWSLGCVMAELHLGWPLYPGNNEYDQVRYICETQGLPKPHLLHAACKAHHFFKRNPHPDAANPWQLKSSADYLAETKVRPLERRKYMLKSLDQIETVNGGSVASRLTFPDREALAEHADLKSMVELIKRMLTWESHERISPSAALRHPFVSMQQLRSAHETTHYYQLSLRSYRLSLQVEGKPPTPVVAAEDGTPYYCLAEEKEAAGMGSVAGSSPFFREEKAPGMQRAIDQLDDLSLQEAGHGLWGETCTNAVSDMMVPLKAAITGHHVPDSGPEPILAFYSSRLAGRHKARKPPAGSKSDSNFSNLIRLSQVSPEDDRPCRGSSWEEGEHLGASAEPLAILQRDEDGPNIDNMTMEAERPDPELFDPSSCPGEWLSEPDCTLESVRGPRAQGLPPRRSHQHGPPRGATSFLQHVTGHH

Series 1
Cell line: mouse MPNST tumor cells
Method: high-content nuclear imaging
Item: cell number
Concentration: 10 µM
Time: 12 h
Setting: mean of 2 replicates
Reference: plate mean
Reading: higher = more cells
Structure (SMILES)	nuclei count
O=S(=O)(c1cccc2cnccc12)N1CCNCC1	3.42 z-score
CNC(=O)c1ccc(C)c(-n2c(C)cc(OCc3ccc(F)cc3F)c(Br)c2=O)c1	0.944 z-score
CCCCCCCCc1ccc(-c2ccc(C(=O)O)cc2)cc1	-0.213 z-score
Cc1c(C(=O)NN2CCS(=O)(=O)CC2)nn(-c2ccc(Cl)cc2Cl)c1-c1ccc(C#CCCC#N)cc1	-0.802 z-score
CC(C)(N)c1ncc(-c2ccc(OC(F)(F)F)cc2)[nH]1	2.28 z-score
CCN[C@H]1C[C@H](C)S(=O)(=O)c2sc(S(N)(=O)=O)cc21	1.32 z-score
CCN1CCc2nc(N)oc2CC1	0.704 z-score
O=C(NCCS(=O)(=O)c1ccc(C(F)(F)F)cn1)c1ccc(Cl)cc1	1.72 z-score

Series 2
Structure (SMILES): NS(=O)(=O)c1cc(NC(=O)Cc2ccccc2)ccc1Oc1cccc(Cl)c1
Effect on: cell-free assay
Method: competition with immobilised ligand
Concentration: 1 µM
target	remaining binding [%]
PRKAA1 (Homo sapiens, UniProt Q13131)	71
ALK (Homo sapiens, UniProt Q9UM73, L1196M)	62
PIK3C2G (Homo sapiens, UniProt O75747)	72
HIPK4 (Homo sapiens, UniProt Q8NE63)	100
CDKL2 (Homo sapiens, UniProt Q92772)	99
CHEK2 (Homo sapiens, UniProt O96017)	81
eIF-2-alpha kinase GCN2, C-terminal kinase domain (EIF2AK4, Homo sapiens, UniProt Q9P2K8, S808G)	100
CAMK1G (Homo sapiens, UniProt Q96NX5)	84

Series 3
Compound: CCc1[nH]c(-c2ccc(OC)cc2)nc1-c1ccncc1
Effect on: enzyme activity
Mode: inhibitor
Concentration: 0.5 µM
Reference: control
target	remaining activity
DDR2 (Homo sapiens, UniProt Q16832)	96.1%
MARK4 (Homo sapiens, UniProt Q96L34)	96.4%
ROCK1 (Homo sapiens, UniProt Q13464)	105%
Cyclin-dependent kinase 1, with cyclin A (CDK1, Homo sapiens, UniProt P06493)	91.8%
CAMK4 (Homo sapiens, UniProt Q16566)	97.5%
AKT2 (Homo sapiens, UniProt P31751)	100%
RPS6KA4 (Homo sapiens, UniProt O75676)	98.6%
Myosin-IIIb (MYO3B, Homo sapiens, UniProt Q8WXR4)	107%
DCLK2 (Homo sapiens, UniProt Q8N568)	103%
MINK1 (Homo sapiens, UniProt Q8N4C8)	103%
Cyclin-dependent kinase 9, with cyclin K (CDK9, Homo sapiens, UniProt P50750)	97.9%
CLK3 (Homo sapiens, UniProt P49761)	95.6%
PRKG2 (Homo sapiens, UniProt Q13237)	91.9%
TLK2 (Homo sapiens, UniProt Q86UE8)	102%

Series 4
Target: Bromodomain-containing protein 4, BD1 (BRD4, Homo sapiens, UniProt O60885)
Effect on: acetyl-histone H4 peptide binding
Method: AlphaScreen displacement
Concentration: 50 µM
SMILES	inhibition
O=C(Nc1nnc(SCc2ccc(F)cc2)s1)c1ccc(F)cc1	3.4%
COc1ccc(CNC(=O)Nc2ncc([N+](=O)[O-])s2)cc1	6.15%
CC(Cl)C(=O)C(C#N)=C1Nc2ccccc2S1 (centres unmarked)	15.1%
Fc1ccc(-c2[nH]c3ncccc3c2CN2CCCC2)cc1	23.2%
COc1cc2ncnc(Nc3ccc(NC(=O)c4ccccc4)cc3)c2cc1OC	12.8%
